Measured values pooled from the literature.
Protocols differ between the studies behind these lines. ± gives the spread as reported.
HLA class I histocompatibility antigen, B alpha chain allele B*18:01: HLA class I histocompatibility antigen, B alpha chain, allele B*18:01 (Homo sapiens, UniProt P01889)
cas9: CRISPR-associated endonuclease Cas9/Csn1 (cas9, Streptococcus pyogenes serotype M1, UniProt Q99ZW2)
Chain of UniProt Q99ZW2 (whole entry, looked up): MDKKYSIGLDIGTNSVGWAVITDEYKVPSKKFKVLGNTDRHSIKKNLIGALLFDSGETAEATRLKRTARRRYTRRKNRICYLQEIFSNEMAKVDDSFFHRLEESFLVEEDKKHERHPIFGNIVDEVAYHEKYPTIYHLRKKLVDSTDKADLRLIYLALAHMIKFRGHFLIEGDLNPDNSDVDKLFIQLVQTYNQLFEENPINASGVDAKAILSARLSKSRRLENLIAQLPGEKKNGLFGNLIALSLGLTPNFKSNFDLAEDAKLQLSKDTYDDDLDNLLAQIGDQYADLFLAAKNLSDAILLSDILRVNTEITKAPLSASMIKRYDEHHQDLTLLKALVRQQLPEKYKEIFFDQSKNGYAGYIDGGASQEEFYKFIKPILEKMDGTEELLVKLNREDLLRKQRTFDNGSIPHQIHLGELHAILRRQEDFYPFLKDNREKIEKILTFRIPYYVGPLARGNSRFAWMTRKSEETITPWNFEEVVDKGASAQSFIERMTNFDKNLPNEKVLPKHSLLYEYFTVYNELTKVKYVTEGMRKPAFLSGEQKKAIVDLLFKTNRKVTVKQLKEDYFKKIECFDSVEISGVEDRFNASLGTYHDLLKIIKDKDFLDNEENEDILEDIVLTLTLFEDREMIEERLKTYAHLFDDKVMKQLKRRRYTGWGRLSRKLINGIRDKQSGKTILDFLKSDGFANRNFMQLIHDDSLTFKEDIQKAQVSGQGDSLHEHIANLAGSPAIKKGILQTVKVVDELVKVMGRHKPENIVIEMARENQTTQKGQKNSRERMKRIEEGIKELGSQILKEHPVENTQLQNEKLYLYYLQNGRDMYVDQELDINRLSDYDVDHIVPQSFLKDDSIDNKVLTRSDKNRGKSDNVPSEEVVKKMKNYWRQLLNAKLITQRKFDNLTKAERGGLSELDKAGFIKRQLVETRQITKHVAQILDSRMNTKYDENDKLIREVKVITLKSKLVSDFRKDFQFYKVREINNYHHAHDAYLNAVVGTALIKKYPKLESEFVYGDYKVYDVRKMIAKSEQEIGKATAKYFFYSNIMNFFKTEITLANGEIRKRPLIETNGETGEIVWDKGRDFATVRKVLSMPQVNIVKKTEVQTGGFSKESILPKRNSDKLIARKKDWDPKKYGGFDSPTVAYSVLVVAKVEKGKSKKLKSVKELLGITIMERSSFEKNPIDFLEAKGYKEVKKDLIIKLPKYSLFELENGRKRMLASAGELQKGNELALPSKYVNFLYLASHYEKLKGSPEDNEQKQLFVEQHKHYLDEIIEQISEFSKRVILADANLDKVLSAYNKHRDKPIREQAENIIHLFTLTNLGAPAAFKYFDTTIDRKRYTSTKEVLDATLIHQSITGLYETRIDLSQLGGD
Chain of UniProt P31645 (whole entry, unmodified, looked up): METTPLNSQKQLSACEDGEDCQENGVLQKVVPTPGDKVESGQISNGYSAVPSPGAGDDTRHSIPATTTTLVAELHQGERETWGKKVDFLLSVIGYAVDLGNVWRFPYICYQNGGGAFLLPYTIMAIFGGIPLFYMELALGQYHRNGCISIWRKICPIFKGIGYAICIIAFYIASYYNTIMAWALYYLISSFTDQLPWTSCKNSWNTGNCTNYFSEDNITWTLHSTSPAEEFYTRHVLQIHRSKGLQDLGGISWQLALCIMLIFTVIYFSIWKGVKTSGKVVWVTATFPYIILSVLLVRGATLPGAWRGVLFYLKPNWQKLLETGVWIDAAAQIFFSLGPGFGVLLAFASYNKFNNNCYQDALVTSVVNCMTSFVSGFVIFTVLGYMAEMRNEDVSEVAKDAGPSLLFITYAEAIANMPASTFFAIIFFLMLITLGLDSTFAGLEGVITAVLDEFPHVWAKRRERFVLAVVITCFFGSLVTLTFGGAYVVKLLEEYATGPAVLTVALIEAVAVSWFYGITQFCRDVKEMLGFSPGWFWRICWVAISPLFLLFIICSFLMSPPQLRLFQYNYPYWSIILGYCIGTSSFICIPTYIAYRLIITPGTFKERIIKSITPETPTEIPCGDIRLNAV
Chain of UniProt P01921 (whole entry, looked up): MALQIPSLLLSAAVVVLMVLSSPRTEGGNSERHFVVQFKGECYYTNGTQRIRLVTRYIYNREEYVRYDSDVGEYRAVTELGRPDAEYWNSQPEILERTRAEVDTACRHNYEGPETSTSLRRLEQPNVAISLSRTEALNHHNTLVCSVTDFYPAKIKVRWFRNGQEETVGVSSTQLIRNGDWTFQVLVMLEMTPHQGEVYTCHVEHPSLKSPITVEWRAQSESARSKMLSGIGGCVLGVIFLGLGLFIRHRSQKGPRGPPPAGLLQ
Chain of UniProt P23977 (whole entry, looked up): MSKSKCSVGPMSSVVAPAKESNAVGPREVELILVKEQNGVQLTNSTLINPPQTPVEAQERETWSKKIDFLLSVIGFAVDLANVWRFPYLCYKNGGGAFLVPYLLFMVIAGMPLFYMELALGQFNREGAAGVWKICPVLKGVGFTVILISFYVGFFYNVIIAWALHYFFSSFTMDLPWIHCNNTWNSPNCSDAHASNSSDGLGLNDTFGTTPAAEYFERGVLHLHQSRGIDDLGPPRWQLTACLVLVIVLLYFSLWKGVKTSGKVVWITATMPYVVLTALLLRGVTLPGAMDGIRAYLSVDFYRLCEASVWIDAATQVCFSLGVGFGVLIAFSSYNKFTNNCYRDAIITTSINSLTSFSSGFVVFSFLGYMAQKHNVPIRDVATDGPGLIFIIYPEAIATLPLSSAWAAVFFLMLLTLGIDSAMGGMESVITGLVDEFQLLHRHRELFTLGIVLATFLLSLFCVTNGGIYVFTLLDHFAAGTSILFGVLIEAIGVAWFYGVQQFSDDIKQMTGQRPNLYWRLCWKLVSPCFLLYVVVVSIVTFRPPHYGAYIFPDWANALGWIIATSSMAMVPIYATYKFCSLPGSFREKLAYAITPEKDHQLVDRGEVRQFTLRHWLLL
Chain of UniProt P04228 (whole entry, looked up): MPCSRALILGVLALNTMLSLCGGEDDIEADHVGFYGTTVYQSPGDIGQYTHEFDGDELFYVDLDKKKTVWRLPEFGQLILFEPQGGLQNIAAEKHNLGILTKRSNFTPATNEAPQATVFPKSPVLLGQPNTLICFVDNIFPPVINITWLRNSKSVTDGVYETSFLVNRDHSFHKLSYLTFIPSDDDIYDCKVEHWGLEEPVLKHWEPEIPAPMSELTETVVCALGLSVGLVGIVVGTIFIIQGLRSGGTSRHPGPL
Chain of UniProt Q9Y5N1 (whole entry, looked up): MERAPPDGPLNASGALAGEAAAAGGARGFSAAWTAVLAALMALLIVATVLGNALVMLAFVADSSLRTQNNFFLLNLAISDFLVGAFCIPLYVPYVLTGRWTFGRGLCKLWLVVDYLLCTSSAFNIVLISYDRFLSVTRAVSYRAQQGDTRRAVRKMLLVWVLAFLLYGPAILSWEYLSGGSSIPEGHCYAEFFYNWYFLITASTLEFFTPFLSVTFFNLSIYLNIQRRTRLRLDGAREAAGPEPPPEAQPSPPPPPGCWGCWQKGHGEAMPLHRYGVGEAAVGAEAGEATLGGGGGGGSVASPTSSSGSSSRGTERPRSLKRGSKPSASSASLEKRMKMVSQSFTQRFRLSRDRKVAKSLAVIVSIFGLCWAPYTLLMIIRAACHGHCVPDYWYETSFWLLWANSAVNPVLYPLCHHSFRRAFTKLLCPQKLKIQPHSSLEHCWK
Chain of UniProt Q9GZZ6 (whole entry, looked up): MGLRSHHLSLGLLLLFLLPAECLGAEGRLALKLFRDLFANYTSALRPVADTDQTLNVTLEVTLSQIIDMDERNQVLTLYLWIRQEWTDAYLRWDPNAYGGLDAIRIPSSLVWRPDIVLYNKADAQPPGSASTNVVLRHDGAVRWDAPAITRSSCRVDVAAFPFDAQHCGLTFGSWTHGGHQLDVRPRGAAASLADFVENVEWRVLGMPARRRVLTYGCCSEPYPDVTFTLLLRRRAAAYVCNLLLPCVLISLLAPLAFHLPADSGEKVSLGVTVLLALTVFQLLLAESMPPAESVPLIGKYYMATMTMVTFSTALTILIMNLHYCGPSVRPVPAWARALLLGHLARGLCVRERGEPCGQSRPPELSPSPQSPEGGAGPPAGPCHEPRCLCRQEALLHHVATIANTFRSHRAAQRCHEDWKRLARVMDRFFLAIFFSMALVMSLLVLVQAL
Chain of UniProt P20618 (whole entry, looked up): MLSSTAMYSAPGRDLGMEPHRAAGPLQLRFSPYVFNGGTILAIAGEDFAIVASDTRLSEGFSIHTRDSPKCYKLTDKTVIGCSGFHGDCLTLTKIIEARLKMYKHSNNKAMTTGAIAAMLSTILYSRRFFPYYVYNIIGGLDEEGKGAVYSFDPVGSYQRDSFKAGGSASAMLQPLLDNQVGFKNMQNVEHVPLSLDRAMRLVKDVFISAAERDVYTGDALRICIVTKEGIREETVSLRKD
Chain of UniProt P28223 (whole entry, looked up): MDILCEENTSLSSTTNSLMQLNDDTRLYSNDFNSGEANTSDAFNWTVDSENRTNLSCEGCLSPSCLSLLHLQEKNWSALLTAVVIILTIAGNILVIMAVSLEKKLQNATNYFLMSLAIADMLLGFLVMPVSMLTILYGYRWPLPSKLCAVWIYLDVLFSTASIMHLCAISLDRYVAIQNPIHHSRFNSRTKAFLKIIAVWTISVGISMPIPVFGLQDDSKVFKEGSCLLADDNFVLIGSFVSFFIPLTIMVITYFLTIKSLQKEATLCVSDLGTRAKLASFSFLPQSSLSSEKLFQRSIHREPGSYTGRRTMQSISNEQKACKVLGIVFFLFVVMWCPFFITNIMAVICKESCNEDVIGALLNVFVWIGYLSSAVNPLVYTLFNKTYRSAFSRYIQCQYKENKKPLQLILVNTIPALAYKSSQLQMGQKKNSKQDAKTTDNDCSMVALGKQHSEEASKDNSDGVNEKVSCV
Chain of UniProt P49720 (whole entry, looked up): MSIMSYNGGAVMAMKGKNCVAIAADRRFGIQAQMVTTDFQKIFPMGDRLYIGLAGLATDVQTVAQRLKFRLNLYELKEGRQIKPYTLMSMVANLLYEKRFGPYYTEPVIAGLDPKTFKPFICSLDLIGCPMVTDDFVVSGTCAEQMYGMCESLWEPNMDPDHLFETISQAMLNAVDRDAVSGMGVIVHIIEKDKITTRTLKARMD

| SMILES | target | test | test system | setting | IC50 [µM] |
| --- | --- | --- | --- | --- | --- |
| CC(=O)N1C[C@@H](CCN2CC=C(c3c[nH]c4cc(Cl)ccc34)CC2)c2ccccc21 | SLC6A4 (Homo sapiens, UniProt P31645, R104K) |  |  |  | 0.243 |
| COc1cc(Nc2ncc(F)c(Nc3ccc4c(n3)NC(=O)C(C)(C)O4)n2)cc(OC)c1OC | HRH3 (Homo sapiens, UniProt Q9Y5N1) |  |  |  | > 10 |
| C[C@H]1CN(c2n[nH]c3nc(N[C@H]4CC[C@H](NS(=O)(=O)CCC(F)(F)F)CC4)ncc23)CCO1 | CLK2 (Homo sapiens, UniProt P49760) | biochemical |  |  | ≥ 20 |
| Cn1c(=O)n(CCCCN2CCC3(CC2)OCc2ccccc23)c2ccccc21 | Slc6a3 (Rattus norvegicus, UniProt P23977) | dopamine uptake, inhibitor | rat striatal synaptosomes | added: [3H]dopamine | 6.01 |
| CC[C@H](C)[C@H](NC(=O)[C@H](CC(=O)O)NC(=O)[C@H](CCCNC(=N)N)NC(=O)CN)C(=O)N[C@@H](Cc1c[nH]cn1)C(=O)N[C@@H](Cc1ccc(O)cc1)C(=O)N[C@@H](CCC(N)=O)C(=O)N[C@@H](CCC(=O)O)C(=O)NCC(=O)N[C@H](C(=O)N1CCC[C@H]1C(=O)N[C@@H](CO)C(=O)N[C@@H](Cc1ccc(O)cc1)C(=O)N[C@@H](CCC(=O)O)C(=O)N[C@@H](CCC(N)=O)C(=O)N[C@H](C(=O)O)C(C)C)C(C)C | H2-Ab1/H2-Aa (Mus musculus, UniProt P01921+P04228) | binding, radioligand competition |  | 2 d, added: radiolabeled peptide 1 nM | 0.606 |
| CN(C)C(=O)C(CCN1CCC(O)(c2ccc(Cl)cc2)CC1)(c1ccccc1)c1ccccc1 | Calcium-activated potassium channel subunit alpha-1, with LRRC26 γ1 subunit (KCNMA1, Homo sapiens, UniProt Q12791) | BK channel conductance, inhibitor, inside-out patch clamp |  | BKα/γ1, Vm 110 mV, nominally Ca2+-free | 2.4 ± 0.36 |
| CSCC[C@H](NC(=O)[C@H](Cc1ccc(O)cc1)NC(=O)[C@H](CC(C)C)NC(=O)[C@H](CCSC)NC(=O)[C@H](CO)NC(=O)CNC(=O)[C@H](CC(C)C)NC(=O)[C@H](CC(C)C)NC(=O)[C@@H](N)CCSC)C(=O)O | HLA class I histocompatibility antigen, B alpha chain allele B*18:01 | peptide-MHC binding, radioligand competition binding |  |  | > 70 |
| O=C(O[C@@H]1Cc2c(O)cc(O)cc2O[C@@H]1c1cc(O)c(O)c(O)c1)c1cc(O)c(O)c(O)c1 | cas9 | linear substrate | Streptococcus pyogenes |  | 20 to 50 |
| NCCOCC(=O)N1CCCC(C(=O)NCc2nc(-c3ccc(-c4ccc(F)cc4)cc3)cs2)C1 (stereo not shown) | PSMB1/PSMB8/PSMB3 (Homo sapiens, UniProt P20618+P28062+P49720) |  |  |  | > 30 |
| Cc1ccc(S(=O)(=O)Oc2ccc3c(c2)Oc2nc4c(c(N)c2C3c2cccc(Br)c2)CCCC4)cc1 (stereo not shown) | ACHE (Homo sapiens, UniProt P22303) | enzyme activity, inhibitor |  |  | 9.36 |
| COc1ncccc1-c1cnn2ccc(N3CCN(C(=O)OC(C)C)CC3)nc12 | HTR2A (Homo sapiens, UniProt P28223) | liability screen |  |  | > 10 |
| CCCCCCCCOc1ccccc1C(=O)Nc1ccc(C(=O)OCC[N+](C)(CC)CC)cc1 | Neuronal acetylcholine receptor; alpha9/alpha10 (Homo sapiens, UniProt Q9GZZ6+Q9UGM1) | inhibitor |  |  | 0.045 ± 0.002 |
| CC(C)C[C@H](NC(=O)[C@H](Cc1ccc(O)cc1)NC(=O)CNC(=O)[C@@H](N)C(C)C)C(=O)N[C@@H](CCC(N)=O)C(=O)N1CCC[C@H]1C(=O)N[C@@H](CCCNC(=N)N)C(=O)N[C@H](C(=O)N[C@@H](Cc1ccccc1)C(=O)O)[C@@H](C)O | HLA class I histocompatibility antigen, B alpha chain allele B*18:01 | peptide-MHC binding, radioligand competition binding |  |  | 0.707 |
| CCN1CCN(Cc2ccc(Nc3nc4ccc(Oc5ccnc(NC(C)=O)c5)c5c4n3CCC5)cc2C(F)(F)F)CC1 | Protein kinase 6 (Plasmodium falciparum, UniProt Q8IDW1) | enzyme activity, inhibitor |  |  | 0.7 ± 0.2 |
| O=C(Nc1ccccc1-c1cn2c(CN3CCNCC3)csc2n1)c1cnc2ccccc2n1 | cas9 | circular plasmid substrate | Streptococcus pyogenes |  | 50 to 100 |
| CNC(C)Cc1ccc2n[se]nc2c1 (stereo not shown) | SLC6A4 (Homo sapiens, UniProt P31645) |  |  |  | 19.1 ± 4.2 |

Repeated from above:
| SMILES | target | test | test system | setting | IC50 [µM] |
| --- | --- | --- | --- | --- | --- |
| COc1cc(Nc2ncc(F)c(Nc3ccc4c(n3)NC(=O)C(C)(C)O4)n2)cc(OC)c1OC | HRH3 (Homo sapiens, UniProt Q9Y5N1) |  |  |  | > 10 |
| C[C@H]1CN(c2n[nH]c3nc(N[C@H]4CC[C@H](NS(=O)(=O)CCC(F)(F)F)CC4)ncc23)CCO1 | CLK2 (Homo sapiens, UniProt P49760) | biochemical |  |  | ≥ 20 |
| Cn1c(=O)n(CCCCN2CCC3(CC2)OCc2ccccc23)c2ccccc21 | Slc6a3 (Rattus norvegicus, UniProt P23977) | dopamine uptake, inhibitor | rat striatal synaptosomes | added: [3H]dopamine | 6.01 |
